Experimental data from different studies.
Lines come from different studies, so protocols differ. Several values in a cell are separate wells, animals, samples, runs or records. ± marks the error that the study gave.

CCC1CNC(CC)CN(C(C(=O)[O-])c2ccc(C(=O)[O-])cc2)C(CC)CN(CC(=O)[O-])C(CC)CN1.[Mn+2] (stereo not drawn)
Mn content (ICP-MS; BALB/c mouse, liver; intravenous, 0.05 mmol/kg, 1440 min, without anaesthesia): 1.45 ± 0.36 µg/g

CC(C)Cc1ccc(C(C)C(=O)NC(CCCCNC(=O)CCOCCOCCOCCOCCOCCOCCNC(=O)CN2CCN(CC(=O)[O-])CCN(CC(=O)[O-])CCN(CC(=O)[O-])CC2)C(=O)Nc2cccc3c(C(=O)NCC(=O)N4CC(F)(F)C[C@H]4C#N)ccnc23)cc1.[68Ga+3] (stereo partly drawn)
radiochemical stability (human serum; 60 min, 37 °C, 68Ga-labelled): 98.44 ± 0.7%

C=C(NC(=O)c1csc(-c2nc3c(cc2O)-c2nc(cs2)C(=O)NC(C(C)O)C(=O)NC(=C(C)OC)c2nc(cs2)C(=O)NC2c4nc(cs4)C(=O)NC(COC(=O)c4c5c6c(cccc6n4O)COC(=O)C(OC4CC(C)(O)C(N(C)C)C(C)O4)C2OC5)c2nc-3cs2)n1)C(N)=O (stereo not drawn)
volume of distribution (cynomolgus monkey, female, plasma; intravenous infusion, 3 mg/kg single dose): 0.895 L/kg

CN(Cc1cc(C2CC2)on1)C(=O)c1cccc(-c2ccc(F)cc2)c1
remaining compound (male ICR/CD-1 mouse, liver microsomes; 2 µM, 60 min, pH 7.5, without ABT): 17.1%

CCCCN1C(=O)c2cccc3c(NCCCCCCN4CCOCC4)ccc(c23)C1=O
Stokes shift (DMF): 83 nm

C/C(N)=N/C(=N\S(=O)(=O)c1ccc(C(F)(F)F)cc1)N1C[C@H](c2ccccc2)C(c2ccc(Cl)cc2)=N1
Cmax (C57BL/6 mouse, heart; intravenous, 10 mg/kg): 14300 ng/mL

OCC1OC(n2cnc3c(NCc4ccc(Br)s4)ncnc32)C(O)C1O (stereo not drawn)
fraction unbound (equilibrium dialysis; human plasma; 0.5 µg/mL, 4 h, pH 7.4): 0.142

CNc1cc(N)c(C(N)=O)c[n+]1C
plasma concentration of product (substrate, item: methylated product; rats, plasma; oral, 30 mg/kg, 0.50 h): 161 nM and 159 nM

CNCc1ccc(-c2cc(=O)c3ccc4[nH]c(C(F)(F)F)nc4c3o2)cc1
clearance (ICR mice, plasma; oral, 5 mg/kg): 223 mL/min/kg

COc1cccc(OC)c1-c1cc(C(=O)NC2(C(=O)O)C3CC4CC(C3)CC2C4)nn1-c1ccc(C(=O)NCCNC(=O)[C@H](CCCCNC(=O)[C@H](CC(C)C)NC(=O)C2OC2C(=O)O)NC(=O)CN2CCN(CC(=O)[O-])CCN(CC(=O)[O-])CCN(CC(=O)[O-])CC2)cc1C(C)C.[177Lu+3] (mixture of isomers)
tumour-to-stomach ratio (mouse HT-29 xenograft; 24 h, biodistribution; relative to: tumour over stomach): 30.8

CC[C@H](C)[C@H](NC(=O)[C@H](Cc1ccc(O)cc1)NC(=O)[C@@H](NC(=O)[C@H](CCCNC(=N)N)NC(=O)[C@@H](N)CC(=O)O)C(C)C)C(=O)N[C@@H](Cc1c[nH]cn1)C(=O)N1CCC[C@H]1C(=O)O
plasma concentration (LC-MS/MS; Sprague-Dawley rat, both sexes, plasma; subcutaneous, 10 mg/kg/day, day 0, 2 h, 120 min): 1.53 ng/mL

O=C(Nc1cnccc1-c1ccc([18F])cc1)c1ccnc(NC(=O)C2CC2)c1
SUV (ex vivo gamma counting; GSK-3β transgenic mice, early-stage, feces; intravenous, 120 min, mean, P-gp inhibitor pretreatment, added: tariquidar 15 mg/kg iv): 6.64

COc1ccc(CNc2ccc3c(c2)S(=O)(=O)C=C3)cc1
conversion to thiol conjugate (PBS; 50 µM, 24 h, pH 7.4, 37 °C, added: equimolar thiol): 30 to 40%

CCCCN1C(=O)c2cccc3c(NCCCCCN4CCOCC4)ccc(c23)C1=O
Stokes shift (chloroform): 74 nm

O=C1c2sc(-c3ccc(N4CCC(CO)CC4)nc3F)nc2CCN1c1cccnc1
concentration (CD1 mouse, plasma; i.v., dose not given, 0.5 h): 14.7 ng/mL and 21.8 ng/mL and 13.2 ng/mL

CCCCN1C(=O)c2cccc3c(NCCCCCCCCN4CCOCC4)ccc(c23)C1=O
Stokes shift (water; pH 6.0): 106 nm

CCc1cnc(NC(=O)c2cc(S(=O)(=O)N3CCOCC3)ccc2N(C)C2CCCC2)s1
Sodium (mouse, serum; 10 mg/kg, 3 doses): 154 mEq/L

O=C(Nc1cnccc1-c1ccc([18F])nc1)c1ccnc(NC(=O)C2CC2)c1
SUV (FVB/NJ mouse, both sexes, brain; intravenous, 30 min): 0.071

Cc1nc(N)nc2c1C(=O)N[C@@H](c1ccc(F)cc1-c1cccc(O[11CH3])n1)C2
SUV (ex vivo biodistribution; mice, MDA-MB-231 subcutaneous xenograft, kidneys; 60 min post-injection, baseline, vehicle pre-treatment): 1.7 ± 0.2

CCCCN1C(=O)c2cccc3c(NCCCCN4CCOCC4)ccc(c23)C1=O
Stokes shift (acetonitrile): 89 nm

CC(C(=O)O)n1nc(Cn2cc3cc(OCC[18F])c(Cl)cc3n2)c2ccccc2c1=O (racemic)
tracer uptake (rat, spleen; 5 min): 0.14 %ID/g

CC(=O)N([O-])CCCCCNC(=O)CCC(=O)N([O-])CCCCCNC(=O)CCC(=O)N([O-])CCCCCN.[89Zr+4]
intact complex (radio-TLC; aqueous buffer; 3 d, pH 7.2, 37 °C, 89Zr-labelled complex, added: CuCl2 10-fold excess): 96.7 ± 2.2%

COc1ccc(/C=C/c2nc3c(Nc4ccc(Cl)cc4)ncnc3[nH]2)cc1OC
purity (HPLC; solution; after 1 h light exposure): 99.7%

CCC1(CC)CC(=O)N(C2CCOc3ccc(C(=O)NC4CC(C)(C)Oc5ccccc54)cc32)C(=N)N1 (stereo not drawn)
Vd (male beagle dog, plasma; intravenous): 4.5 L/kg

CCCCN1C(=O)c2cccc3c(NCCCN4CCOCC4)ccc(c23)C1=O
Stokes shift (ethyl acetate): 80 nm

N#C[C@@H]1CC(F)(F)CN1C(=O)CNC(=O)c1ccnc2c(NC(=O)C(N)CCCCNC(=O)CCOCCOCCOCCOCCOCCOCCNC(=O)CN3CCN(CC(=O)[O-])CCN(CC(=O)[O-])CCN(CC(=O)[O-])CC3)cccc12.[68Ga+3] (stereo partly drawn)
radiochemical stability (PBS; 120 min, 37 °C, 68Ga-labelled): 98.58 ± 0.2%

O=C(O)CCCOc1ccc([18F])cc1-c1cc(-c2ccccc2C(F)(F)F)n(-c2ccccc2)n1
absorbed dose (OLINDA/EXM from mouse data; human adults, kidney): 18.2 µGy/MBq

C=CC(=O)Nc1cc(Nc2nccc(-c3c[nH]c4ccccc34)n2)c(OC)cc1N(C)CCN(C)C
recovery (storage stability; human plasma; 30 d, on ice, LQC level): 51.1%

CCC1C=C(C)C(O)C(C)CC(OC)C2OC(O)(C(=O)C(=O)N3CCCCC3C(=O)OC(C(C)=CC3CCC(O)C(OC)C3)C(C)C(O)CC1=O)C(C)CC2OC (stereo not drawn)
concentration (mouse C57BL/6, ear skin; topical, 10 µL of 37.1 mM, 6 h, 3% propylene glycol): 30700 ng/g

O=C1c2sc(-c3ccc(N4CCC(F)C4)nc3F)nc2CCN1c1cccnc1 (stereo not drawn)
concentration (CD1 mouse, plasma; i.v., dose not given, 1 h): 31.8 ng/mL and 29.8 ng/mL and 32 ng/mL

O=S(=O)(N[C@H]1CCO[C@@H](C2c3ccccc3CCc3ccccc32)C1)c1ccc(OC(F)(F)F)cc1
brain/plasma ratio (mouse; oral, 30 mg/kg, 2 h): 1.33 ± 0.31

N#C[C@@H]1CC(F)(F)CN1C(=O)CNC(=O)c1ccnc2c(NC(=O)[C@H](CCCCNC(=O)CCOCCOCCOCCOCCOCCOCCNC(=O)CN3CCN(CC(=O)[O-])CCN(CC(=O)[O-])CCN(CC(=O)[O-])CC3)NC(=O)CCCc3ccc(I)cc3)cccc12.[177Lu+3]
radiochemical stability (human serum; 4 h, 37 °C, 177Lu-labelled): 95.2 ± 1.4%

C=CC(=O)Oc1ccc(OC)c(-c2c[nH]c3ncc(-c4cncc(C(=O)N(C)C)c4)cc23)c1
reactivity half-life (HPLC; acetonitrile/water/DMSO; 50 µM, 37 °C, DIPEA 20 eq, added: N-α-acetyl-lysine): 2 to 4 h

CNc1cc(C)c(C(N)=O)cn1
plasma concentration (Han Wistar rats, male, plasma; oral, 30 mg/kg, 0.50 h): 106000 nM

CCCCCCCC(=O)OC[C@H](NC(=O)[C@H](CO)NC(=O)CN)C(=O)N[C@@H](Cc1ccccc1)C(=O)N[C@@H](CC(C)C)C(=O)N[C@@H](CO)C(=O)N1CCC[C@H]1C(=O)N[C@@H](CCC(=O)O)C(=O)N[C@@H](Cc1cnc[nH]1)C(=O)N[C@@H](CCC(N)=O)C(=O)N[C@@H](CCCNC(=N)N)C(=O)N[C@H](C(=O)N[C@@H](CCC(N)=O)C(=O)N[C@@H](CCC(N)=O)C(=O)N[C@@H](CCCNC(=N)N)C(=O)N[C@@H](CCCCN)C(=O)N[C@@H](CCC(=O)O)C(=O)N[C@@H](CO)C(=O)N[C@@H](CCCCN)C(=O)N[C@@H](CCCCN)C(=O)N1CCC[C@H]1C(=O)N1CCC[C@H]1C(=O)N[C@@H](C)C(=O)N[C@@H](CCCCN)C(=O)N[C@@H](CC(C)C)C(=O)N[C@@H](CCC(N)=O)C(=O)N1CCC[C@H]1C(=O)N[C@@H](CCCNC(=N)N)C(=O)O)C(C)C
blood pressure (manual cuff, item: mBP; human, chronic HFrEF patients; intravenous infusion, 0.1 µg/kg/min over 120 min, follow-up day 2-5, median): 83 mm Hg

CCCCN1C(=O)c2cccc3c(NCCCCCCCCCCN4CCOCC4)ccc(c23)C1=O
Stokes shift (dioxane): 85 nm

CCCCCCCCCCCCCCCC(=O)N[C@@H](CCCCN)C(=O)N[C@@H](CCCCN)C(=O)N[C@@H](CO)C(=O)N[C@@H](CCCNC(=N)N)C(=O)N[C@@H](C)C(=O)N[C@@H](CC(C)C)C(=O)N[C@@H](Cc1ccccc1)C(N)=O
terminal half-life (human patients, plasma; intravenous, 0.5 mg/kg over 2 h): 1.31 h

Cc1ccc(OCC(=O)N(Cc2cccs2)c2ccn[nH]2)cc1
remaining compound (human plasma; 750 ng/mL, 0.5 h, 37 °C, unit not given; relative to: time zero): 86.2

CCCCCC(=O)[O][Pt]([Cl])([Cl])[O]C(=O)CCCCC.N.N
clearance (ICP-MS, item: platinum; nude mice, blood; intravenous, equimolar single dose): 1.87e-06 mg/(ng/mL)/h

O=C([O-])CN1CCN(CC(=O)[O-])CCN(C(CO)C(O)CO)CCN(CC(=O)[O-])CC1.[Dy+3] (stereo not drawn)
urinary excretion (ICP-MS; cynomolgus monkey; dose not given, 57 58 d, PK group; relative to: dose): 0.01%

Cc1cc(C(=O)NC(C)(C)CO)cc(C)n1
plasma peak area (LC-MS metabolite profiling; Sprague-Dawley rat, both sexes, plasma; oral, 100 mg/kg of parent drug, 0.25 (unit not given); higher = more metabolite): 189000 a.u.

[11CH3]N1CCC(NC(=O)c2cc(-c3c(O)cc(O)cc3Oc3ccc([N+](=O)[O-])cc3)on2)CC1
standardized uptake value (healthy female Wistar rats, blood; intravenous, 60 min): 0.4 ± 0.1 g/mL

COc1cccc(OC)c1-c1cc(C(=O)NC2(C(=O)O)C3CC4CC(C3)CC2C4)nn1-c1ccc(C(=O)N(C)CCCN(C)CCCN(C)C(=O)[C@H](CCCCNC(=O)[C@H](CC(C)C)NC(=O)C2OC2C(=O)O)NC(=O)CN2CCN(CC(=O)[O-])CCN(CC(=O)[O-])CCN(CC(=O)[O-])CC2)cc1C(C)C.[177Lu+3] (mixture of isomers)
tumour-to-stomach ratio (mouse HT-29 xenograft; 72 h, biodistribution; relative to: tumour over stomach): 90.5

CCC(CC)n1c(Cc2ccco2)nc2cc(C(=O)N[C@@H](CC(=O)O)c3ccccc3)ccc21
clearance (Sprague-Dawley rat, male, plasma; ip, 10 mg/kg): 34 ± 4.17 mL/min/kg

Cc1n[nH]c(C)c1CCCOc1cc(C(=O)NCCCCC(NC(=O)CN2CCN(CC(=O)[O-])CCN(CC(=O)[O-])CCN(CC(=O)[O-])CC2)C(=O)NCC2CCC(C(=O)NC(Cc3ccc4ccccc4c3)C(=O)NCCCCC(NC(=O)NC(CCC(=O)O)C(=O)O)C(=O)O)CC2)ccc1F.[68Ga+3] (stereo not drawn)
radiochemical purity (radio-HPLC; mouse serum; 4 h, 37 °C): 96.9 ± 1.05%

Repeated from above:
CC(C(=O)O)n1nc(Cn2cc3cc(OCC[18F])c(Cl)cc3n2)c2ccccc2c1=O (racemic)
tracer uptake (rat, spleen; 5 min): 0.14 %ID/g

COc1cccc(OC)c1-c1cc(C(=O)NC2(C(=O)O)C3CC4CC(C3)CC2C4)nn1-c1ccc(C(=O)NCCNC(=O)[C@H](CCCCNC(=O)[C@H](CC(C)C)NC(=O)C2OC2C(=O)O)NC(=O)CN2CCN(CC(=O)[O-])CCN(CC(=O)[O-])CCN(CC(=O)[O-])CC2)cc1C(C)C.[177Lu+3] (mixture of isomers)
tumour-to-stomach ratio (mouse HT-29 xenograft; 24 h, biodistribution; relative to: tumour over stomach): 30.8

N#C[C@@H]1CC(F)(F)CN1C(=O)CNC(=O)c1ccnc2c(NC(=O)C(N)CCCCNC(=O)CCOCCOCCOCCOCCOCCOCCNC(=O)CN3CCN(CC(=O)[O-])CCN(CC(=O)[O-])CCN(CC(=O)[O-])CC3)cccc12.[68Ga+3] (stereo partly drawn)
radiochemical stability (PBS; 120 min, 37 °C, 68Ga-labelled): 98.58 ± 0.2%

COc1ccc(/C=C/c2nc3c(Nc4ccc(Cl)cc4)ncnc3[nH]2)cc1OC
purity (HPLC; solution; after 1 h light exposure): 99.7%

CN(Cc1cc(C2CC2)on1)C(=O)c1cccc(-c2ccc(F)cc2)c1
remaining compound (male ICR/CD-1 mouse, liver microsomes; 2 µM, 60 min, pH 7.5, without ABT): 17.1%

CC(=O)N([O-])CCCCCNC(=O)CCC(=O)N([O-])CCCCCNC(=O)CCC(=O)N([O-])CCCCCN.[89Zr+4]
intact complex (radio-TLC; aqueous buffer; 3 d, pH 7.2, 37 °C, 89Zr-labelled complex, added: CuCl2 10-fold excess): 96.7 ± 2.2%
